Measured values from different studies.
Compare with care: the assays were run in different laboratories. Several values in a cell are separate wells, animals, samples, runs or records. ± gives the spread as reported.

Structure (SMILES)	cell line	test	system	conditions	how to read	quantity	value
N[C@@H]1C[C@H]1c1ccccc1	OCI-Ly1	–	–	0.5 µM, 120 h	–	viability	164%
Oc1ccc(C(c2ccc(O)cc2)(C(F)(F)F)C(F)(F)F)cc1	HepG2 spheroids	Hoechst flow cytometry	–	1 µM, 24 h	–	G1 phase cells	74.7 ± 3.23%
Cc1cnc2ccc3c(nc(N)n3C)c2n1	BALB/c 3T3	colony forming efficiency	–	10 µM	–	colony number	94 colonies per plate and 92 colonies per plate and 87 colonies per plate
C/C=C(/C)C(=O)O[C@H]1C(C)=C2[C@H]([C@@H]1OC(=O)CCCCCCC)[C@@](C)(OC(C)=O)C[C@H](OC(=O)CCC)[C@@]1(O)[C@H]2OC(=O)[C@@]1(C)O	HEK-293T	RNA-seq GSEA, item: Hallmark mTORC1 signaling	–	500 nM, 6 h	direction not given	normalized enrichment score	2.68
CC(c1ccccc1)(c1ccc(O)cc1)c1ccc(O)cc1	HepG2 spheroids	Hoechst flow cytometry	–	0.01 µM, 96 h	–	G2 phase cells	15.4 ± 7.51%
Nc1ncnc2c1ncn2[C@@H]1O[C@@H]2COP(=O)(O)O[C@H]3[C@@H](O)[C@H](n4cnc5c(=O)[nH]cnc54)O[C@@H]3COP(=O)(O)O[C@H]2[C@H]1O	HFF-1	RNA sequencing, item: Diseases of metabolism	–	downregulated pathway	relative to: Zika virus alone	pathway fold enrichment	3.73
COc1c(CCC[P+](c2ccccc2)(c2ccccc2)c2ccccc2)cc2c(c1OC)OCO2.[I-]	HOP-92	SRB	–	–	–	LC50	-4.22 log M
CN(C)C(=O)c1cc2cnc(Nc3ccc(C(=O)NCCCCCCOc4cccc5c4C(=O)N(C4CCC(=O)NC4=O)C5=O)cc3)nc2n1C1CCCC1 (stereo not drawn)	SK-N-BE(2) and IMR-32	RT-qPCR, item: MYCN	–	concentration not given, 24 h	–	mRNA level	no effect
Cn1cc2cc(C(F)(F)c3nnc4ccc(-c5cnn(C6CC6)c5)nn34)c(F)cc2n1	MKN-45	PI flow cytometry	–	200 nM, 24 h	–	G0/G1 phase cells	~90.6%
CC[C@H](C)[C@H](NC(=O)CNC(=O)[C@@H](N)CCCCN)C(=O)N[C@@H](CC(C)C)C(=O)N[C@@H](CCCCN)C(=O)N[C@@H](CCCNC(=N)N)C(=O)N[C@@H](CCC(=O)O)C(=O)N[C@@H](CCCCN)C(=O)N[C@@H](CCCNC(=N)N)C(=O)N[C@@H](CC(C)C)C(=O)N[C@@H](CCCNC(=N)N)C(=O)N[C@@H](CCCNC(=N)N)C(=O)N[C@@H](CCCCN)C(=O)N[C@@H](CC(N)=O)C(=O)N[C@H](C(=O)N[C@@H](Cc1c[nH]cn1)C(=O)N[C@@H](Cc1c[nH]c2ccccc12)C(=O)N1CCC[C@H]1C(=O)N[C@@H](CCC(=O)O)C(=O)N[C@@H](CCC(=O)O)C(=O)NCC(=O)N[C@@H](CCCCN)C(=O)N[C@@H](CC(C)C)C(=O)N[C@@H](CCCNC(=N)N)C(=O)N[C@@H](CCC(=O)O)C(=O)N[C@@H](Cc1ccccc1)C(=O)N[C@@H](Cc1ccccc1)C(=O)N[C@@H](Cc1ccccc1)C(=O)N[C@@H](Cc1ccccc1)C(=O)N[C@@H](CCC(=O)O)C(=O)N[C@@H](CC(C)C)C(=O)N[C@@H](CC(=O)O)C(=O)N[C@@H](CCC(=O)O)C(=O)N[C@@H](C)C(=O)N[C@@H](CCC(=O)O)C(=O)N[C@@H](CCCNC(=N)N)C(=O)N[C@H](C(=O)N[C@@H](CC(N)=O)C(=O)N[C@H](C(=O)O)C(C)C)C(C)C)C(C)C	HeLa (mitotic)	protein phosphorylation, TMT phosphoproteomics, item: Ki-67 phosphosite	cell lysate	concentration not given, 15 min	relative to: treated over control	log2 fold change	2.77
COc1cc(C[C@H]2COC(=O)[C@@H]2Cc2ccc(O)c(OC)c2)ccc1O	neuroblastoma M2 (+)	western blot	–	IC50	relative to: untreated	PARP cleavage	increased
COc1ccc([C@H]2c3[nH]c4ccc(Cl)cc4c3CCN2C(=O)Oc2ccc(Cl)cc2)cc1	human dermal fibroblasts with PBMC	cytokine secretion, item: sIL-2	–	0.1 µM, 48 h	–	inhibition	68%
CO[C@H]1/C=C\C=C(/C)C(=O)NC2=CC(=O)C(NCCN(C)C)=C(C[C@@H](C)C[C@H](OC)[C@H](O)[C@@H](C)/C=C(\C)[C@@H]1OC(N)=O)C2=O	human cells	plate-normalised	–	concentration not given, hit retest	relative to: vehicle controls, SDs below control	MyBP-C level change	5.55 SD
O=C1CCP(=S)(c2ccccc2)CC1	HCT-116	ELISA	–	concentration not given, compound at IC50	relative to: control	IL-6 secretion decrease	93.4%
C[C@]12CC[C@H](O)C[C@H]1CC[C@@H]1[C@@H]2CC[C@]2(C)[C@@H](c3ccc(=O)oc3)CC[C@]12O	MCF7	RT-qPCR, item: SIAH2	–	50 nM, 48 h, without estradiol, unit not given	relative to: untreated	mRNA level	0.122 and 0.157 and 0.194
CCN(CC)c1ccc(C=NNC(=O)CSc2nc3ccccc3c(=O)n2Cc2ccc(S(N)(=O)=O)cc2)c(O)c1	SN12C	NCI five-dose screen	–	–	–	CC50	> 100 µM
COc1c(C)c2c(c(O)c1C/C=C(\C)CCC(=O)O)C(=O)OC2	Caco-2	cell proliferation	colon cancer	–	–	IC50	1.05 µM
Nc1ncc(-c2nc(N3CCOCC3)nc(N3CCOCC3)n2)c(C(F)F)n1	CAL-27	–	–	72 h	–	GI50	0.189 µM
Oc1cc(Cl)ccc1Oc1ccc(Cl)cc1Cl	HepG2	extracellular flux, item: oxygen consumption rate	–	1 h, representative mode	–	point of departure	1.38 µM
COc1cc(CCC[P+](c2ccccc2)(c2ccccc2)c2ccccc2)c(OC)c2c1OCO2.[I-]	EKVX	SRB	–	–	–	TGI	-4.45 log M
Cn1cncc1C1=CN(c2ncnc3[nH]cnc23)CCS1	M14	–	–	melanoma cell line	–	CC50	> 200 µM
CC(C)N1CCC(NC2CCN(c3cccc(-c4cc5cc(F)ccc5[nH]4)c3)CC2)CC1	SK-MEL-5	–	–	–	–	GI50	1.56 µM
CCC(=O)CCCCC[C@@H]1NC(=O)[C@H]2CCCCN2C(=O)[C@H]([C@@H](C)CC)NC(=O)[C@H](Cc2cn(OC)c3ccccc23)NC1=O	OCI-Ly1	–	–	0.1 µM, 120 h	–	viability	96.7%
Nc1nc2nc[nH]c2c(=S)[nH]1	HCT-116 3-6	clonogenic	–	0.625 µM, 10 days	–	surviving fraction	0.861
COc1ccc2c(c1)[nH]c1c(C)nccc12	DU-145	bisulfite pyrosequencing, item: RASSF1A promoter CpG site 32	–	10 µM, 16 h	–	DNA methylation	97.5%
COc1cc(C(=O)c2c[nH]c3cc(-c4cccc(O)c4)ccc23)cc(OC)c1OC	MDA-MB-231	–	–	50 nM	–	time to migration arrest	4 h
Cn1nccc1Nc1nccc(-c2cc3c(s2)C(C)(C)N(CCN2CCOCC2)C3=O)n1	HCT116	IncuCyte	–	concentration not given, 32 (unit not given)	–	PI-positive cells	14.3 count and 8.75 count and 13.3 count
CN1CCN(C2(CNC3CCN(c4cccc(-c5cc6cc(F)ccc6[nH]5)c4)CC3)CCC2)CC1	SK-MEL-5	–	–	–	–	CC50	5.64 µM
Cc1cc(C(C)(C)c2ccc(O)c(C)c2)ccc1O	HepG2 spheroids	Hoechst flow cytometry	–	40 µM, 24 h	–	G1 phase cells	73.3 ± 5.24%
N.N.[Cl][Pt][Cl]	SGC-7901 resistant to compound	viability, CCK-8	–	with glutamine	–	IC50	43.2 µM

Some of these lines once more:
Structure (SMILES)	cell line	test	system	conditions	how to read	quantity	value
COc1c(CCC[P+](c2ccccc2)(c2ccccc2)c2ccccc2)cc2c(c1OC)OCO2.[I-]	HOP-92	SRB	–	–	–	LC50	-4.22 log M
CN(C)C(=O)c1cc2cnc(Nc3ccc(C(=O)NCCCCCCOc4cccc5c4C(=O)N(C4CCC(=O)NC4=O)C5=O)cc3)nc2n1C1CCCC1 (stereo not drawn)	SK-N-BE(2) and IMR-32	RT-qPCR, item: MYCN	–	concentration not given, 24 h	–	mRNA level	no effect
Cn1cc2cc(C(F)(F)c3nnc4ccc(-c5cnn(C6CC6)c5)nn34)c(F)cc2n1	MKN-45	PI flow cytometry	–	200 nM, 24 h	–	G0/G1 phase cells	~90.6%
CC[C@H](C)[C@H](NC(=O)CNC(=O)[C@@H](N)CCCCN)C(=O)N[C@@H](CC(C)C)C(=O)N[C@@H](CCCCN)C(=O)N[C@@H](CCCNC(=N)N)C(=O)N[C@@H](CCC(=O)O)C(=O)N[C@@H](CCCCN)C(=O)N[C@@H](CCCNC(=N)N)C(=O)N[C@@H](CC(C)C)C(=O)N[C@@H](CCCNC(=N)N)C(=O)N[C@@H](CCCNC(=N)N)C(=O)N[C@@H](CCCCN)C(=O)N[C@@H](CC(N)=O)C(=O)N[C@H](C(=O)N[C@@H](Cc1c[nH]cn1)C(=O)N[C@@H](Cc1c[nH]c2ccccc12)C(=O)N1CCC[C@H]1C(=O)N[C@@H](CCC(=O)O)C(=O)N[C@@H](CCC(=O)O)C(=O)NCC(=O)N[C@@H](CCCCN)C(=O)N[C@@H](CC(C)C)C(=O)N[C@@H](CCCNC(=N)N)C(=O)N[C@@H](CCC(=O)O)C(=O)N[C@@H](Cc1ccccc1)C(=O)N[C@@H](Cc1ccccc1)C(=O)N[C@@H](Cc1ccccc1)C(=O)N[C@@H](Cc1ccccc1)C(=O)N[C@@H](CCC(=O)O)C(=O)N[C@@H](CC(C)C)C(=O)N[C@@H](CC(=O)O)C(=O)N[C@@H](CCC(=O)O)C(=O)N[C@@H](C)C(=O)N[C@@H](CCC(=O)O)C(=O)N[C@@H](CCCNC(=N)N)C(=O)N[C@H](C(=O)N[C@@H](CC(N)=O)C(=O)N[C@H](C(=O)O)C(C)C)C(C)C)C(C)C	HeLa (mitotic)	protein phosphorylation, TMT phosphoproteomics, item: Ki-67 phosphosite	cell lysate	concentration not given, 15 min	relative to: treated over control	log2 fold change	2.77
